Measurements gathered from unrelated publications.
Each line is one published result; not all experiments were run side by side.
EPHA6: Ephrin type-A receptor 6 (EPHA6, Homo sapiens, UniProt Q9UF33)
UniProt Q9UF33, sequence (whole entry, looked up): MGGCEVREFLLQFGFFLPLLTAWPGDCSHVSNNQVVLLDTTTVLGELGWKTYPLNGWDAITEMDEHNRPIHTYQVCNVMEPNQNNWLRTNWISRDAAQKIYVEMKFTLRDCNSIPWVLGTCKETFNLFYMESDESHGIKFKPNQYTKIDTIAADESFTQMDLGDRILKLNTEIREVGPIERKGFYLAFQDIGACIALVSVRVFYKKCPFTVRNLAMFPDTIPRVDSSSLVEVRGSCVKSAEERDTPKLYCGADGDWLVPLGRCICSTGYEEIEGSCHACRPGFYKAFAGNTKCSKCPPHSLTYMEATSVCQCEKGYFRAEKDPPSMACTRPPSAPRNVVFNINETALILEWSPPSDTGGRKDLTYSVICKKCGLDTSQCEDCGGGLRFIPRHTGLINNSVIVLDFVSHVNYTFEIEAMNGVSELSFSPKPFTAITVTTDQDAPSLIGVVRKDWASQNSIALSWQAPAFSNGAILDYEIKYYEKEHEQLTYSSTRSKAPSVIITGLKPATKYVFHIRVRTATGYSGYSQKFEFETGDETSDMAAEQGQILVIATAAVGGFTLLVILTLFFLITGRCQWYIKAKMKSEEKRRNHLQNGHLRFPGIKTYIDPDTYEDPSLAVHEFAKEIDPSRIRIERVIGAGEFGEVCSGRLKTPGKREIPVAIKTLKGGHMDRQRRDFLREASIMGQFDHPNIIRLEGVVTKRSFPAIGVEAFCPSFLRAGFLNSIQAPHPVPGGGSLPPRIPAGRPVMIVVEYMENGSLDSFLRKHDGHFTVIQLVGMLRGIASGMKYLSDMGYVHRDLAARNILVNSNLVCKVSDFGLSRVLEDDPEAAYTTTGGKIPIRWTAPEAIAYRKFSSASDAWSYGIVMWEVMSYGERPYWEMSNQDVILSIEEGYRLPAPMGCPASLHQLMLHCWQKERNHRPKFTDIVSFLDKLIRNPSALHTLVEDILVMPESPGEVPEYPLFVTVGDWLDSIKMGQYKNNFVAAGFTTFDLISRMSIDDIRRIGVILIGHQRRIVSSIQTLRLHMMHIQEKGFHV
Potassium/sodium hyperpolarization-activated cyclic nucleotide-gated channel 1: Potassium/sodium hyperpolarization-activated cyclic nucleotide-gated channel 1 (Homo sapiens, UniProt O60741)
UniProt O60741, sequence (whole entry, looked up): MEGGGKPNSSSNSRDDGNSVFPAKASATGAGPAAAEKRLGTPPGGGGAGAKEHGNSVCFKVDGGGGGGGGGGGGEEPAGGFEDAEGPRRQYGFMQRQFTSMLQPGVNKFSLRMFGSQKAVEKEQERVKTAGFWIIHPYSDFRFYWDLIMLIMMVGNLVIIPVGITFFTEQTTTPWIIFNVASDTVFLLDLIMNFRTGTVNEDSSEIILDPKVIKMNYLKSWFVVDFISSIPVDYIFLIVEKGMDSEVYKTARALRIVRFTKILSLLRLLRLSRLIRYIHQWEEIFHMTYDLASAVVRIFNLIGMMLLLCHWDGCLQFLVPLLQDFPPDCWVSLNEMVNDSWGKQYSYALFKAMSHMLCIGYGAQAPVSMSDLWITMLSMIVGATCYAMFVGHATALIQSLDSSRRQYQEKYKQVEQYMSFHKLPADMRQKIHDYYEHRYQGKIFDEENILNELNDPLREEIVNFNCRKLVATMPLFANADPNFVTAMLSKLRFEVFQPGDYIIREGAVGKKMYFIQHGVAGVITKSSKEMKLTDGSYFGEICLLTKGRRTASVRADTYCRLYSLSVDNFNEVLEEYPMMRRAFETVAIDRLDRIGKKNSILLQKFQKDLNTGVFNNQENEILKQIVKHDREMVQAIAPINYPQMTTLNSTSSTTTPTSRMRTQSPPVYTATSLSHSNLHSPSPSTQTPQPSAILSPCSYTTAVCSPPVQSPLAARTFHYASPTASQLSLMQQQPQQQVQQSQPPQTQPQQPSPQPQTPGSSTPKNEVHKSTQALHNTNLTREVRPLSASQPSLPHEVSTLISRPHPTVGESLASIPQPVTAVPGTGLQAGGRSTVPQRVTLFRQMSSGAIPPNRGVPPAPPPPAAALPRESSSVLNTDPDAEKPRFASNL
UniProt P13945, sequence (whole entry, looked up): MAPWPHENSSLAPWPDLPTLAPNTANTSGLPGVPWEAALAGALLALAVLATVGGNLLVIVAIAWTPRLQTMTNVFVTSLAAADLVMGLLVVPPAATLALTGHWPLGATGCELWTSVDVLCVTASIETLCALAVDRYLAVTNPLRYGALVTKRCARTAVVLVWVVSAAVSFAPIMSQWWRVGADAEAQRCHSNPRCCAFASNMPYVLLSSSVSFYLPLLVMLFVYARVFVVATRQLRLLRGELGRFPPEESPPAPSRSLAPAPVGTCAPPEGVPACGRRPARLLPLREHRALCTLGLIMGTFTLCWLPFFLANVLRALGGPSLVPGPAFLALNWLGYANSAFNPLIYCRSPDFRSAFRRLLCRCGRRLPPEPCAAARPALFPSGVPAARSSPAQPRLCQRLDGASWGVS
UniProt O00329, sequence (whole entry, looked up): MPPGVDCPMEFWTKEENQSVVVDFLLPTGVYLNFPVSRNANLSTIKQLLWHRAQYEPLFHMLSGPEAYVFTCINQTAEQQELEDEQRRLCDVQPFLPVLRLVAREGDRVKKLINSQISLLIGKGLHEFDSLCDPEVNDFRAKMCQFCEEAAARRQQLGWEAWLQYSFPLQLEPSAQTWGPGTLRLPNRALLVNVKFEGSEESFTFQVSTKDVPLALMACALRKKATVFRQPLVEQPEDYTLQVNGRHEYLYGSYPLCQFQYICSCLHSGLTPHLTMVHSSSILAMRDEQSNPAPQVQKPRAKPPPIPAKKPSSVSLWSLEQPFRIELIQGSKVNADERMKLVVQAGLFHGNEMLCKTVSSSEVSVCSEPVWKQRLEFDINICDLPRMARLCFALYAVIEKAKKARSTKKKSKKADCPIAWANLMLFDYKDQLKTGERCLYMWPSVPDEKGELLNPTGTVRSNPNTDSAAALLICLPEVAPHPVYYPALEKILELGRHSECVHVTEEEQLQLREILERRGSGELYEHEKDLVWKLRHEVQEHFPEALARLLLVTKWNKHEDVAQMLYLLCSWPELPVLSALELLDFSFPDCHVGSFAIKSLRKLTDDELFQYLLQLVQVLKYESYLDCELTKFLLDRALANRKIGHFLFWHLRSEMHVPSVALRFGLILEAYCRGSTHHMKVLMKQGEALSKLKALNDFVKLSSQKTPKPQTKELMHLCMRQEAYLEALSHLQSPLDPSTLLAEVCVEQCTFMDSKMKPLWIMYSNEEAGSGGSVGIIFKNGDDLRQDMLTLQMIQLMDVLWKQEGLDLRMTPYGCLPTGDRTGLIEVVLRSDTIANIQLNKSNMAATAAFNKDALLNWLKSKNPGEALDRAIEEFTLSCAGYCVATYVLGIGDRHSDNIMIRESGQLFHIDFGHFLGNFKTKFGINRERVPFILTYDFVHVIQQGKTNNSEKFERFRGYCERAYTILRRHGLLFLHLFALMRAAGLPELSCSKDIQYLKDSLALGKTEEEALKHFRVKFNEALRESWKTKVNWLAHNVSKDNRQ
UniProt Q8IVW4, sequence (whole entry, looked up): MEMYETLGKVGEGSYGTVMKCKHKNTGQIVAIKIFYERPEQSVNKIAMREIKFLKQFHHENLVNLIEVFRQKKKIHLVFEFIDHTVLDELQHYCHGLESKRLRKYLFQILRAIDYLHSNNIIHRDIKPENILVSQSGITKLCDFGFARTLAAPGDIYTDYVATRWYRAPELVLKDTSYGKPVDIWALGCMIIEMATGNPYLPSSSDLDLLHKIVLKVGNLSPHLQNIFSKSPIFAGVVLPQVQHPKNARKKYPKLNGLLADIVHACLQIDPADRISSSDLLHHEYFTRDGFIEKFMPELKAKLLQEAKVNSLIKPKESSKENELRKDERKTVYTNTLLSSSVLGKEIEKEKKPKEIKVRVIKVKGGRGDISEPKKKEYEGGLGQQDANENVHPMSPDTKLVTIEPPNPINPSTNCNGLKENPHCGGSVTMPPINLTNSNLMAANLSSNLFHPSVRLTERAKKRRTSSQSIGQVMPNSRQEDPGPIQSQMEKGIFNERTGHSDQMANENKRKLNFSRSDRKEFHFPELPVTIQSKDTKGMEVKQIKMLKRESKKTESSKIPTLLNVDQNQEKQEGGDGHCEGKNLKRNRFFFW
UniProt P27338, sequence (whole entry, looked up): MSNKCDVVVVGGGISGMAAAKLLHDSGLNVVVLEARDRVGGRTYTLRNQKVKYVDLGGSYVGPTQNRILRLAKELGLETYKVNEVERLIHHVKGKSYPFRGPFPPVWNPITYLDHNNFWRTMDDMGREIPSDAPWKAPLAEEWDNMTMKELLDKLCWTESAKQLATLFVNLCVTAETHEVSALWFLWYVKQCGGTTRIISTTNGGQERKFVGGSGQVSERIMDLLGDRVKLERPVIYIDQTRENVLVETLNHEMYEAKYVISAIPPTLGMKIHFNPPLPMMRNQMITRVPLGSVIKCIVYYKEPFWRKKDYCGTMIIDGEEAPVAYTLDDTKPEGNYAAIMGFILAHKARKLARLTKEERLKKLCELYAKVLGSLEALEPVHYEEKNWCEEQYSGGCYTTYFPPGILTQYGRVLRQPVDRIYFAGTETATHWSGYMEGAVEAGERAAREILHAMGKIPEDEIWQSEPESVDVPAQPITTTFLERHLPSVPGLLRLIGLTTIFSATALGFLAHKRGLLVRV
UniProt O43148, sequence (whole entry, looked up): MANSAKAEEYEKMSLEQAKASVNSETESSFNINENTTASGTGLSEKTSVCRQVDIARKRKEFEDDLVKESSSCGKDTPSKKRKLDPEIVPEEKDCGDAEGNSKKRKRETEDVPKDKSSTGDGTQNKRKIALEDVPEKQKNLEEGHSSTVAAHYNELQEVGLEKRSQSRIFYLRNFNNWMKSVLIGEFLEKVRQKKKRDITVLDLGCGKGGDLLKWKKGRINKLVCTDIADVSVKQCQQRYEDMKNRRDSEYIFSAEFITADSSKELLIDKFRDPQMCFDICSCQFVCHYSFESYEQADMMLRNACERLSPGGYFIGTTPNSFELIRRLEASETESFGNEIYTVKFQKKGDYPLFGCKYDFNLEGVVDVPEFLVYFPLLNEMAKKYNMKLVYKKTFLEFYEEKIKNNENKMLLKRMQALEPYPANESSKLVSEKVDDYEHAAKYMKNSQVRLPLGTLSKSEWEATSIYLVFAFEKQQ

SMILES = Nc1ncc(-c2nc(N3CCOCC3)nc(N3CCOCC3)n2)c(C(F)F)n1; target = EPHA6; assay = cell-free assay, competition with immobilised ligand; conditions = 10 µM; endpoint = remaining binding; value = 94%
SMILES = [2H]c1c([2H])c([C@]2([2H])CCCN2C(=O)C(C)(C)Oc2ccc3cn[nH]c3c2)c([2H])c([2H])c1C([2H])([2H])[2H]; target = EPHA6; assay = binding, competition with immobilised ligand; conditions = 1 µM; endpoint = remaining binding; value = 94%
SMILES = Nc1ccncc1; target = Potassium/sodium hyperpolarization-activated cyclic nucleotide-gated channel 1; assay = ion current, inhibitor; conditions = 30 µM; endpoint = inhibition; value = -415%
SMILES = Cn1cc(-c2cccc(N3CCc4c(sc5c4CC(C)(C)C5)C3=O)c2CO)cc(Nc2ccncn2)c1=O; target = Phosphatidylinositol 4,5-bisphosphate 3-kinase catalytic subunit delta isoform (PIK3CD, Homo sapiens, UniProt O00329); assay = enzyme activity, inhibitor; conditions = 1 µM; endpoint = inhibition; value = -5%
SMILES = CC(C)NCC(O)COc1cccc2ccccc12 (stereo not shown); target = Potassium/sodium hyperpolarization-activated cyclic nucleotide-gated channel 1; assay = ion current, inhibitor; conditions = 10 µM; endpoint = inhibition; value = -4.84%
SMILES = COc1ncccc1-c1cnn2ccc(N3CCN(C(=O)OC(C)C)CC3)nc12; target = Serine/threonine-protein kinase LATS2 (LATS2, Homo sapiens, UniProt Q9NRM7); assay = binding, competition with immobilised ligand; conditions = 1 µM; endpoint = remaining binding; value = 82%
SMILES = CN1CCC[C@H]1c1cccnc1; target = Alpha-2A adrenergic receptor (ADRA2A, Homo sapiens, UniProt P08913); assay = ligand displacement; conditions = 50 µM; endpoint = inhibition; value = 6.39%
SMILES = Cc1nn(C)cc1-c1nc2c(N3CCN(Cc4ccc(Cl)cc4)CC3)c(Cl)cnc2[nH]1; target = Cyclin-dependent kinase-like 3 (CDKL3, Homo sapiens, UniProt Q8IVW4); assay = binding, competition with immobilised ligand; conditions = 1 µM; endpoint = remaining binding; value = 100%
SMILES = CC(=O)Nc1ccc(O)cc1; target = Potassium/sodium hyperpolarization-activated cyclic nucleotide-gated channel 1; assay = ion current, inhibitor; conditions = 10 µM; endpoint = inhibition; value = 15%
SMILES = Nc1ncnc2c1ncn2[C@@H]1O[C@H](C[C@@H](N)CC[C@H](N)C(=O)O)[C@@H](O)[C@H]1O; target = mRNA cap guanine-N(7) methyltransferase (RNMT, Homo sapiens, UniProt O43148); assay = enzyme activity, inhibitor; conditions = 48.83 nM; endpoint = inhibition; value = 11.2%
SMILES = c1cncc([C@@H]2CCCN2)c1; target = Beta-3 adrenergic receptor (ADRB3, Homo sapiens, UniProt P13945); assay = ligand displacement; conditions = 50 µM; endpoint = inhibition; value = 0.12%
SMILES = CC(C)CC(=O)OC[C@H]1O[C@@](C#N)(c2ccc3c(N)ncnn23)[C@H](O)[C@@H]1O; target = Amine oxidase [flavin-containing] B (MAOB, Homo sapiens, UniProt P27338); assay = enzyme activity, inhibitor; conditions = 20 µM; endpoint = inhibition; value = 10%
SMILES = C#Cc1n[nH]c2c(-c3cn([C@@H](C)c4ccccn4)c(=O)[nH]c3=O)cc(F)cc12; target = Phosphatidylinositol 4-phosphate 3-kinase C2 domain-containing subunit alpha (PIK3C2A, Homo sapiens, UniProt O00443); assay = enzyme activity, inhibitor; conditions = 0.1 µM; endpoint = inhibition; value = 10.5%

A few entries again:
SMILES = [2H]c1c([2H])c([C@]2([2H])CCCN2C(=O)C(C)(C)Oc2ccc3cn[nH]c3c2)c([2H])c([2H])c1C([2H])([2H])[2H]; target = EPHA6; assay = binding, competition with immobilised ligand; conditions = 1 µM; endpoint = remaining binding; value = 94%
SMILES = Nc1ccncc1; target = Potassium/sodium hyperpolarization-activated cyclic nucleotide-gated channel 1; assay = ion current, inhibitor; conditions = 30 µM; endpoint = inhibition; value = -415%
